Results of several laboratories.
Each line is one published result; not all experiments were run side by side.
Organism: Staphylococcus aureus

SMILES	test	system	conditions	scale	MIC
COc1cc2c(=O)c(C(=O)NCCNCCO)cn(Cc3ccccc3)c2cc1OCc1cccc(Br)c1	–	ATCC 43300 MRSA	–	≥80% growth inhibition	< 0.25 µg/mL
CN1C(=O)[C@@H]2NC(=O)[C@@H]3NC(=O)[C@@H](c4ccc(O)cc4)NC(=O)[C@H](NC(=O)C(NCc4ccsc4)c4ccc(O)cc4)Cc4c[nH]c5cc(ccc45)-c4cc3cc(c4O)Oc3ccc(cc3)C[C@H]1C(=O)N[C@@H](C(=O)O)c1ccc(O)c(c1)Oc1ccc2cc1 (some centres unmarked)	–	ATCC 33591 MRSA, Mueller-Hinton broth	–	–	4 µg/mL
CCCCCCCCCCCN1C(=O)/C(=N\NC(=N)N)c2cc(C)ccc21	broth microdilution	BAA41 MRSA	18 h, 37 °C	–	6 µg/mL
C/C(=N/NC(=N)N)c1nnn(-c2ccc(C#CC(C)(C)O)cc2)c1C	broth microdilution	MRSA USA300 NRS384	–	–	16 µg/mL
CC(C)C[C@@H]1NC(=O)[C@@H](CC(C)C)NC(=O)[C@H](CCN)NC(=O)[C@@H](NC(=O)[C@H](CCN)NC(=O)[C@@H](NC(=O)CCOCCOCCOCCn2cc(C[C@H](NC(=O)CC[C@@H]3NC(=O)[C@H](CCN)NC(=O)[C@H](Cc4ccc(O)cc4)NC(=O)[C@H]([C@@H](C)O)NC(=O)[C@H](C(C)C)NC(=O)[C@@H]4CCCN4C(=O)[C@@H](C)NC(=O)[C@H](CO)NC(=O)[C@H](C)NC(=O)[C@H](C(C)(C)C)NC(=O)[C@H](CCO)NC(=O)[C@H](Cc4c[nH]c5ccccc45)NC(=O)[C@H](CCO)NC(=O)[C@@H](CCN)NC3=O)C(N)=O)nn2)[C@@H](C)O)CCNC(=O)[C@H]([C@@H](C)O)NC(=O)[C@H](CCN)NC(=O)[C@H](CCN)NC1=O	broth microdilution	MRSA USA300, CAMHB with polysorbate-80	16 h	–	> 64 µg/mL
CC(C)CCCCCCCCC/C=C/C(=O)N[C@@H](CC(=O)O)C(=O)N[C@H]1CNC(=O)[C@@H]2CCCN2C(=O)[C@H](C(C)C)NC(=O)[C@@H]([C@@H](C)O)NC(=O)CNC(=O)[C@H](CC(=O)O)NC(=O)CNC(=O)[C@H](CC(=O)O)NC(=O)[C@H](CC(=O)O)NC(=O)[C@H]2CCCCN2C1=O	–	MRSA USA300	16 h, 37 °C, with: Ca2+ 10 mM	–	4 µg/mL
CC(=O)N[C@@H](Cc1c[nH]c2ccccc12)C(=O)N[C@@H](Cc1c[nH]c2ccccc12)C(=O)N[C@@H](Cc1c[nH]c2ccccc12)C(=O)N[C@@H](Cc1c[nH]c2ccccc12)C(=O)NCCCC[C@@H]1NC(=O)[C@H](CCCNC(=N)N)NC(=O)[C@H](CCCNC(=N)N)NC(=O)[C@H](CCCNC(=N)N)NC(=O)[C@H](CCCNC(=N)N)NC(=O)[C@H](CCCNC(=N)N)NC1=O	broth microdilution	MRSA ATCC 43300	37 °C	–	53 µg/mL
N=C(N)NCCC[C@@H]1NC(=O)[C@H](CCCNC(=N)N)NC(=O)[C@H](CCCNC(=N)N)NC(=O)[C@H](CCCNC(=N)N)NC(=O)[C@H](Cc2c[nH]c3ccccc23)NC(=O)[C@H](CCCNC(=N)N)NC(=O)[C@H](CCCNC(=N)N)NC(=O)[C@@H](N)CCCn2cc(nn2)C[C@@H](C(N)=O)NC1=O	–	ATCC 25923	24 h, 37 °C	–	7.8 µg/mL
CC(C)C[C@@H]1NC(=O)[C@H](C)NC(=O)[C@H](NC(=O)[C@@H](N)COC(=O)[C@@H](C)NC(=O)[C@@H](CC(C)C)NC(=O)[C@@H](N)Cc2ccccc2)[C@H](C(N)=O)OC(=O)[C@H](CC(C)C)NC1=O	–	MSSA ATCC 29213	TFA salt	–	> 32 µg/mL
NCCCC[C@@H]1NC(=O)[C@@H](CCCCN)NC(=O)[C@H](CCCCN)NC(=O)[C@@H](CCCCN)NC(=O)[C@H](Cc2c[nH]c3ccccc23)NC(=O)[C@@H](Cc2c[nH]c3ccccc23)NC(=O)[C@@H](N)CSCc2ccc(cc2)CSC[C@@H](C(N)=O)NC(=O)[C@@H](Cc2c[nH]c3ccccc23)NC(=O)[C@H](Cc2c[nH]c3ccccc23)NC(=O)[C@@H](CCCCN)NC1=O	–	COL MRSA	–	–	16 to 32 µg/mL
O=C(O)c1ccc(-n2cc(/C=N/Nc3ccc([N+](=O)[O-])cc3)c(-c3cccc(F)c3)n2)cc1	microbial growth	ATCC700699	drug-resistant strain	–	3.12 µg/mL
CC[C@H](C)[C@H](NC(=O)[C@@H](Cc1ccccc1)NC)C(=O)N[C@@H](CO)C(=O)N[C@H](CCCNC(=N)N)C(=O)N[C@@H](C(=O)N[C@H](C(=O)N[C@@H](CO)C(=O)N[C@H]1C(=O)N[C@@H](C)C(=O)N[C@@H](CC(C)C)C(=O)N[C@@H]([C@@H](C)CC)C(=O)O[C@H]1C)[C@@H](C)CC)[C@@H](C)CC	broth microdilution	ATCC 29213, MSSA, Mueller-Hinton broth	16 h, 37 °C	–	0.25 to 0.5 µg/mL
CC[C@H](C)[C@H](NC(=O)[C@H](CC(=O)O)NC(=O)[C@H](Cc1ccccc1)NC(=O)[C@H](CC(C)C)NC(=O)CN)C(=O)N[C@H](C(=O)N[C@@H](CCCCN)C(=O)N[C@@H](CCCCN)C(=O)N[C@H](C(=O)N[C@@H](CC(C)C)C(=O)N[C@@H](CCCCN)C(=O)N[C@@H](CC(C)C)C(=O)N[C@@H](CC(C)C)C(=O)N[C@@H](CCCCN)C(N)=O)C(C)C)C(C)C	–	SH1000 GFP-expressing, nutrient broth	20 h, 37 °C	–	3.3 µM
CCCO[C@H]1[C@H](O)[C@@H](N)[C@@H](O[C@H]2[C@H](O[C@@H]3O[C@H](CO)[C@@H](O[C@H]4O[C@@H](CN)[C@@H](O)[C@H](O)[C@H]4N)[C@H]3O)[C@@H](O)[C@H](N)C[C@@H]2N)O[C@@H]1CO	broth microdilution	MRSA isolate AG 042	–	–	8 to 16 µg/mL
CC(C)[C@H](NC(=O)[C@H](CCCNC(=N)N)NC(=O)[C@H](CCCNC(=N)N)NC(=O)[C@@H](NC(=O)[C@H](C)NC(=O)[C@H](CC(N)=O)NC(=O)[C@H](CCCNC(=N)N)NC(=O)[C@@H](NC(=O)[C@H](CCCNC(=N)N)NC(=O)[C@H](CCCNC(=N)N)NC(=O)[C@@H](NC(=O)[C@@H](NC(=O)[C@H](CCCNC(=N)N)NC(=O)[C@H](CCCNC(=N)N)NC(=O)[C@H](Cc1c[nH]c2ccccc12)NC(=O)[C@H](Cc1c[nH]c2ccccc12)NC(=O)CN)[C@@H](C)O)C(C)C)C(C)C)C(C)C)C(=O)O	bacterial growth	MRSA, ESBL-positive	18 h	–	128 µg/mL
C=C(NC(=O)C(=C)NC(=O)c1csc(C2=NC3c4csc(n4)C4NC(=O)c5csc(n5)C(C(C)(O)C(C)O)NC(=O)C5CSC(=N5)C(=CC)NC(=O)C(C(C)O)NC(=O)c5csc(n5)C3(CC2)NC(=O)C(C)NC(=O)C(=C)NC(=O)C(C(C)CC)NC2C=Cc3c(C(C)O)cc(nc3C2O)C(=O)OC4C)n1)C(N)=O (centres unmarked)	broth microdilution	ATCC 10537 MRSA	18 h, 37 °C	–	> 5 µg/mL
CC[C@H](C)[C@H](N)C1=N[C@H](C(=O)N[C@@H](CC(C)C)C(=O)N[C@H](CCC(=O)O)C(=O)N[C@H](C(=O)N[C@H]2CCCCNC(=O)[C@H](CC(N)=O)NC(=O)[C@@H](CC(=O)O)NC(=O)[C@H](Cc3c[nH]cn3)NC(=O)[C@@H](Cc3ccc(-c4ccccc4)cc3)NC(=O)[C@H]([C@@H](C)CC)NC(=O)[C@@H](CCCN)NC2=O)[C@@H](C)CC)CS1	broth microdilution	ATCC 29213, LB medium	18 h, 37 °C, with: ZnSO4 0.3 mM	–	1 µg/mL
CC[C@H](C)c1occ2c(=O)c(C(=O)O)c(O)cc-2c1C	microbial growth, broth dilution	ATCC29213	–	–	50 µM
CC(=O)[O-].O.S=c1[nH]c2ccccc2[nH]1.S=c1[nH]c2ccccc2[nH]1.[Ag+].c1ccc(P(c2ccccc2)c2ccccc2)cc1.c1ccc(P(c2ccccc2)c2ccccc2)cc1	agar dilution	methicillin-resistant	24 h, 37 °C	–	7 µg/mL
CCC(CC)c1cc(C2CN3CCC2CC3CNC)nc(-c2ccncc2)n1 (centres unmarked)	microbial growth, broth dilution	ATCC29213	–	–	64 µg/mL
CN1C(=O)[C@@H]2NC(=O)[C@@H]3NC(=O)[C@@H](c4ccc(O)cc4)NC(=O)[C@H](NC(=O)C(NCc4ccc(O)c(O)c4O)c4ccc(O)cc4)Cc4c[nH]c5cc(ccc45)-c4cc3cc(c4O)Oc3ccc(cc3)C[C@H]1C(=O)N[C@@H](C(=O)O)c1ccc(O)c(c1)Oc1ccc2cc1 (some centres unmarked)	–	ATCC 33591 MRSA, Mueller-Hinton broth	–	–	16 µg/mL
O=c1[nH]c(=O)c2cccc(O)c2o1	–	ATCC 29213	50 µg/mL	–	inactive
COc1ccc2ccc3c(c2c1)C=[N+]1C2CCCCC2[N+]2=Cc4cccc(F)c4[O][Au-]21[O]3.F[P-](F)(F)(F)(F)F (centres unmarked)	bacterial growth, broth microdilution	vancomycin-intermediate	24 h	–	> 20 µM
CC[C@H](C)[C@H](NC(=O)[C@H](CC(C)C)NC(=O)[C@H](C)NC(=O)[C@H](CO)NC(=O)[C@H](CCCNC(=N)N)NC(=O)[C@@H](N)CO)C(=O)N[C@H](C(=O)N[C@@H](Cc1c[nH]cn1)C(=O)N[C@@H](CCC(N)=O)C(=O)N[C@@H](CCCNC(=N)N)C(=O)N[C@@H](CC(C)C)C(=O)N[C@@H](Cc1ccccc1)C(N)=O)C(C)C	broth microdilution	Mueller Hinton broth	–	–	> 400 µg/mL
CC(C)=CCc1cc([C@@H]2CC(=O)c3ccc(O)c(CC=C(C)C)c3O2)c(O)c(CC=C(C)C)c1O	–	–	–	–	inactive
CN[C@@H]1[C@H](O)[C@H](NC)[C@H]2O[C@]3(O)[C@H](O[C@@H]2[C@H]1O)O[C@H](C)C[C@@]3(O)CNCc1ccc(F)cc1	–	MSSA ATCC 29213	–	–	25 to 50 µg/mL
CCCCCCCCCCCCC[C@@H](O)Cc1cc(O)cc(O)c1	microbial growth, broth dilution	USA300	drug-resistant strain	–	32 µg/mL
CNC(CC(C)C)C(=O)NC1C(=O)NC(CC(N)=O)C(=O)NC2C(=O)NC3C(=O)NC(C(=O)NC(C(=O)O)c4cc(O)cc(O)c4-c4cc3ccc4O)C(O)c3ccc(c(Cl)c3)Oc3cc2cc(c3OC2OC(CO)C(O)C(O)C2OC2CC(C)(NCc3ccc(-c4ccc(Cl)cc4)cc3)C(O)C(C)O2)Oc2ccc(cc2Cl)C1O (centres unmarked)	–	MRSA ATCC 43300	–	–	0.08 µg/mL
O=C1c2ccccc2NC(c2ccc(Cl)c([N+](=O)[O-])c2)N1/N=C/c1ccc(Cl)c([N+](=O)[O-])c1 (centres unmarked)	microbial growth, broth dilution	–	24 h, drug-resistant strain, clinical isolate	–	> 256 µg/mL
